{"data": "Measurements from different studies", "note": "Values joined by “and” are separate records of one study, mostly repeats; a detail may differ."}
{"Compound": "CC1(C)C(C(=O)c2cn(CCCCCF)c3ccccc23)C1(C)C", "assay": "Δ9-THC discrimination", "test system": "C57BL/6J male mice", "conditions": "ip", "quantity": "dose for full substitution", "result": "3 mg/kg"}
{"Compound": "NCC1(CC(=O)O)CCCCC1", "assay": "acetone test", "test system": "CCI mice", "conditions": "dose not given, 2 h", "quantity": "cold allodynia reduction", "result": "75%"}
{"Compound": "C[C@]12CC[C@H]3[C@@H](CC=C4CC(O)CC[C@@]43CO)[C@@H]1CCC2O (stereo partly drawn)", "assay": "Seahorse, measured: basal, maximal and ATP-linked respiration", "test system": "primary hepatocytes, rat, GAN diet-induced MASH", "conditions": "dose not given, hepatocytes isolated after dosing", "scale": "baseline: GAN diet plus vehicle", "quantity": "mitochondrial respiration", "result": "increased"}
{"Compound": "COC(=O)[C@H]1[C@@H](OC(=O)c2ccccc2)C[C@@H]2CC[C@H]1N2C", "test system": "mouse, nucleus accumbens", "conditions": "i.p., 20 mg/kg, single injection", "quantity": "cAMP signal in D1 MSNs", "result": "increased"}
{"Compound": "CN1CC[C@]23c4c5ccc(O)c4O[C@H]2[C@@H](OS(=O)(=O)O)C=C[C@H]3[C@H]1C5", "assay": "hot water tail withdrawal test", "test system": "normal Sprague-Dawley rats", "conditions": "dose not given", "quantity": "time to peak effect", "result": "45 to 60 min"}
{"Compound": "CC(C)C[C@H](CN)CC(=O)O", "assay": "whole-cell current clamp", "test system": "DRG neurons, rat, spinal cord injury", "conditions": "10 µM, overnight, added: nimodipine 5 µM", "quantity": "rheobase", "result": "255 pA and 160 pA and 10 pA and 60 pA and 105 pA"}
{"Compound": "C#CCN(C)[C@H](C)Cc1ccccc1", "assay": "stereological counting", "test system": "MPTP mouse model, substantia nigra", "conditions": "10 mg/kg", "quantity": "TH-positive neuron count", "result": "8470 and 8740 and 6510 and 7350 and 8190 and 7630"}
{"Compound": "CN1CC[C@]23c4c5ccc(O)c4O[C@H]2[C@@H](O)C=C[C@H]3[C@H]1C5", "assay": "hot water tail withdrawal test", "test system": "normal Sprague-Dawley rats", "conditions": "dose not given", "quantity": "time to return to baseline latency", "result": "2 to 3 h"}
{"Compound": "OCC(S)CS (stereo not drawn)", "test system": "rat", "conditions": "dose not given", "scale": "baseline: vehicle", "quantity": "GSSG level", "result": "no effect"}
